# Measurements pooled from the literature.
# Numbered parts are unrelated; each lists some results of a single study.

# Series 1
# Target: Histone acetyltransferase KAT6A, winged helix 1, GST fusion (KAT6A, Homo sapiens, UniProt Q92794, residues 1-85)
# Technique: protein binding microarray
# Form: double-stranded DNA, one strand shown
# Sample: in vitro
# Concentration: not given
# Setting: 8-mer, flanks averaged, mean of 2 arrays, mostly near background
# Reference: not given
# Direction: higher = stronger binding
# Target sequence (chain): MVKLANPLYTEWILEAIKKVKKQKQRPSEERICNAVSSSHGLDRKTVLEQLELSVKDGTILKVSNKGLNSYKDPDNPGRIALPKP
Oligonucleotide,E-score
CCGAGAGG,0.0659
ATAGGTCA,-0.19
CATGAACC,-0.0258
ACGGACAA,0.203
AGAGTCAT,-0.269
ACAGGATA,-0.185
ACCTATGG,-0.103
CTAACTGA,-0.0819
AGACATAC,-0.037
ACGTCTAG,-0.226
CGGGAATC,0.22
CCCTAGTC,-0.227
AATTTTTG,-0.266
CCTCAATC,-0.0748
CCCGTCGA,0.286
GGATAACC,0.0447
GGCGATGA,0.216
CAGTTTAC,-0.0933
AAAACGCC,0.104
AGACGGAA,0.0634
ATATAATA,-0.142
GTCGGCAC,0.236
AACCGTGT,0.0115
CCCTGACC,-0.0433
CTGTGGCA,-0.232

# Series 2
# Target: RNA binding protein fox-1 homolog 2, RRM domain, GST-SBP tag (RBFOX2, Homo sapiens, UniProt O43251-10, residues 100-194)
# Technique: RNA Bind-n-Seq
# Form: RNA
# Sample: in vitro
# Concentration: 365 nM
# Setting: natural RNA segment, single round, ends assumed
# Reference: no-protein control
# Direction: higher = stronger binding
# Target sequence (chain): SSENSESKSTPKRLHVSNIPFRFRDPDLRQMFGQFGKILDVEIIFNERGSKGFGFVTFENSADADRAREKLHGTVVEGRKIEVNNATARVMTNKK
Oligonucleotide,RBNS enrichment (R)
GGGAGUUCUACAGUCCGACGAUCAAAUGCCCAGUCACUGCCCUUUCUAUUGGUGGAGAACAAUCGCAAAAUCUGUGUAUAAUUAGCAAUAACAGAACUAAACCAUUGUUUAGUUGCUAAUCAUAUGUUGCUUUUGGAAUUCUCGGGUGCCAA,0.297
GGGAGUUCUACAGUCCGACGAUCGCGUUUGGCAUUUGUGUUGAGCUUAGGGGAGCAUUGGCAUGGAGAAACUCCACGCUGGCGAAGUCCCGGGCUGGGCUUUCUCCUCCUCCCCCCACCUUUUUUCCCCUUGUUGGAAUUCUCGGGUGCCAA,0.269
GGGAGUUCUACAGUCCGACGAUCGCCUGAGGUCAAAGCUGUGGAAGGCCCUCUUGGUAUCAGGGCUCUCUCCCCAUGGCCUCUUCCCCACCUCUGAUUGCUGGUUGUGGCCCCAUAGCUCAUCACCCCUGUCUUGGAAUUCUCGGGUGCCAA,1.87
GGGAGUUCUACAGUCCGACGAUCUUCCAUUGUAUCUUUCUAAUAAGGGUUUAAAAUGGUACUAUUAUGGUAUUGUACUUGGGCUUUAACAUCAAUGUUGCUUUGAUGUUGUUGGAUAUAAAUAGGAAUUUUUAUGGAAUUCUCGGGUGCCAA,0.444
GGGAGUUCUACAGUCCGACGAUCUGCAGAUGGGAGGAGCAGUGGUGCCUCAAGUCUGCACAUGCUCUGCUUCUAGAAGACUGACUGUGGAUUAGCUUAGUGUACAGACUUUAAACAGCUGCUCCCUCAGCUCAUGGAAUUCUCGGGUGCCAA,0.446
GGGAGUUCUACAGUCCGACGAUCUAUUUUGUAUCUGAGAUACCAGUUCCUUUUCCCAAAUAUAAAAGUAUAAAAGUUUUCUUGUGUUUUUCUGUGAGUGAAAAUUUUGUAAUAAAUUAACAAAUUUGUACAAUUGGAAUUCUCGGGUGCCAA,0.765
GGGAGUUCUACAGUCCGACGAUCUGCUCUAUCAUAGAUGAACAAAUACUUUCUUGAUCAUUCUGUAAGACCAGGAGGUUGGUAAGAGUGACUAACCAGCCUAACUUUAAUACACAUGUAUAAAGAUGUUCACAUGGAAUUCUCGGGUGCCAA,0.303
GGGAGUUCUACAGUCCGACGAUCACCUUGCCUUUACCCAAACUUUGUGGUUUACCCCUUCACCUCCCAGGGGCCCCGACUCUUAAGGGGGAGGGUGUGGCUUAACUGCAGCGUUGGAACCUUAAAGUGGGAAAUGGAAUUCUCGGGUGCCAA,0.266

# Series 3
# Target: Interferon regulatory factor 7, full length, phosphomimetic (IRF7, Homo sapiens, UniProt Q92985, residues 1-503, S471D/S472D/S475D/S476D/S477D/S483D/S484D/S487D)
# Sequence of UniProt Q92985 (whole entry, unmodified, looked up): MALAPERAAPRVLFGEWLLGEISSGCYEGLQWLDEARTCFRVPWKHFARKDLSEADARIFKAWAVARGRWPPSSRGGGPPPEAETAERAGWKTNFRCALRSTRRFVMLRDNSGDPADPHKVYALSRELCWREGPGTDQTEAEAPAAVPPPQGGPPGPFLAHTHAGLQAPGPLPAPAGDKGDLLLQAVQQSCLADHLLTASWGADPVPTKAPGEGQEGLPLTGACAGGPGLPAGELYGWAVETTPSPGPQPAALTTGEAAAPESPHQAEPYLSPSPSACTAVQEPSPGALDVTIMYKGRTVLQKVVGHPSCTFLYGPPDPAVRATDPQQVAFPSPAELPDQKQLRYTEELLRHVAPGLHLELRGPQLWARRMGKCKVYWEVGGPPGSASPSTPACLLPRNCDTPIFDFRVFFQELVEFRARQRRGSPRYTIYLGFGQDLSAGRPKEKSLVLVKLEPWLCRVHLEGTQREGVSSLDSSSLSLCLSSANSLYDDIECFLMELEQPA
# Technique: protein-binding microarray
# Form: double-stranded DNA, one strand shown
# Sample: in vitro
# Concentration: 2200 nM top
# Setting: 60-bp whole probe
# Added: salmon DNA 0.4 mg/ml
# Reference: random background probes
# Direction: higher = stronger binding
# All sequences stand within: GCCTAGCAC … GTCTTGATTCGCTTGACGCTGCTG
Oligonucleotide,fitted relative affinity [z-score]
TTAGATATCAGGTATCGATTAGTGCTA,-0.0194
GGCGGTTCCCTTTTCCTGACGTGCTAG,1.78
TTAGGTATCGACACTGGGTTCGTGCTA,0.234
TGATTTTGGTCTTTCTGTTTGTGCTAG,4.14
TTAGGTTCCGGTTTCAGTTAGTGCTAG,4.68
TTAGGTTTCCTTCTCCTTTCGTGCTAG,3.12
TTAGATTTCGGGACTGGATTTGTGCTA,1.06
GACGGTATCCTTATCCTGGCGTGCTAG,0.692
TTAGGTTGCCTACTGCTTTAGTGCTAG,0.383
TTAGAAATCGGGACTGGATTAGTGCTA,-0.674
TTAGCACTGGGTATCGGTTAGTGCTAG,0.106
AGCTTTCCCAACATCAGAGCGTGCTAG,1.39
GACGTTATCGGTTTCGGGACGTGCTAG,4.56
GACGGACTGGACACTGAGGACGTGCTA,-0.834
GACGGTATCCTATTCCTGACGTGCTAG,1.31
TTATAACTGAGTTTCGATTAGTGCTAG,4.2
TCATTTATATACCTGAAACTGTGCTAG,0.795
GACGATTTCAGTCGCGAGACGTGCTAG,0.662
ATGAGTCTCAAAATTAGAGAGTGCTAG,-0.675

# Series 4
# Target: RING finger protein unkempt homolog, zinc fingers 1-6, GST-SBP tag (UNK, Homo sapiens, UniProt Q9C0B0, residues 30-357)
# Sequence of UniProt Q9C0B0 (30-357, looked up): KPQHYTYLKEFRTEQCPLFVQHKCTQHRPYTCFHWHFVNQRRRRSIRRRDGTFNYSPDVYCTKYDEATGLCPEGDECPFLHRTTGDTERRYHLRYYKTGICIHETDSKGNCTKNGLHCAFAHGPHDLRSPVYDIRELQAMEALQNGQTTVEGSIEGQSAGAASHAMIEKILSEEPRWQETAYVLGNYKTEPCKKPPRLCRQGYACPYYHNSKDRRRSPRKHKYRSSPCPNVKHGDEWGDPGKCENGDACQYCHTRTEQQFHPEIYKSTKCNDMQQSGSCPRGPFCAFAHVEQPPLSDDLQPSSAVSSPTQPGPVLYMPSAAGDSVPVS
# Technique: RNA Bind-n-Seq
# Form: RNA
# Sample: in vitro
# Concentration: not given
# Setting: RNA with constant flanks, human-mouse chimeric sites, ends assumed
# Reference: input RNA pool
# Direction: higher = stronger binding
Oligonucleotide,bound/input enrichment
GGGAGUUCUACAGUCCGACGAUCAACUUCGUGCAUCGGUUUCCCUUUGUAGCUGUUUCAAUUGGCUUUGCUGUGAAUAAAAAGAUAGAAUUUGGAAUUGUGUACAGCUGUGUGGAAGAUAAGAUGUACACCGGCAGGAAAGGGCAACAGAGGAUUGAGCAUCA,5.12 ratio
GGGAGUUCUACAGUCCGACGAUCCUCGGCACCGGCACGCUUUACAUCGCUGAGAGCCGCCUGUCCUGGUUAGAUGGUUCGGGAUUAGGAUUCUCACUGGAAUACCCCACCAUUAGUUUACAUGCAUUAUCCAGGGAUCCAAACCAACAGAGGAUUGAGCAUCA,1.87 ratio
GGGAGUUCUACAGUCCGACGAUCUGUGAACUGUCUCUUGAGAUCUAAAAACAAGAUGACUUUUCCUGGCACAUAUUCCAAAGCAUAGACUUUGUUGCCUGCUGCUUAUUGUCUAAUUUACAGGGAUAUUUAAUUUUGUAAGGUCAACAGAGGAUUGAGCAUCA,0.189 ratio
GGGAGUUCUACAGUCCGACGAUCAGAUAUUAAGUAUUUUGAAAAAACUCGAACAGAUUUGACAAGGGUAGCCAGCUUGGAGUCUAGCAACUUGCCAAUGUUGCUUACCAACUGGGGGCUUGUUUUUCUUUUCUUCUUUCAAAUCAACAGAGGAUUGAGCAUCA,0.282 ratio
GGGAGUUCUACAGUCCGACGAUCGCACUUCUCAAAUACUGGCCAAAGACUCACAGUCCAAAAGAAGUAAUGUUCUUAAAUGAAUUAGAAGAAAUUUUAGAUGUAAUUGAACCAUCAGAAUUUGUGAAGAUCAUGGAACCCCUUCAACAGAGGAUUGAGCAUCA,0.682 ratio
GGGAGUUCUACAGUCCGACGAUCCUGAAAAACACAGAUAUCAAAGUUGUUGACUUUGGAAGUGCAACGUAUGACGACGAACAUCAUAGUACUUUGGUGUCUACCCGGCACUACAGAGCUCCCGAGGUCAUUUUGGCUUUAGGUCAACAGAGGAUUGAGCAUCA,0.197 ratio
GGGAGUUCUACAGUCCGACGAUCGAGCCCAGCCGGCAGUUUGUAAAGGACUCAAUUCGGCUGGUUAAAAGAUGCACCAAACCUGAUAGAAAAGAAUUCCAGAAGAUUGCCAUGGCUACAGCUAUAGGAUUUGCUAUAAUGGGACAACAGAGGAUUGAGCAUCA,0.465 ratio
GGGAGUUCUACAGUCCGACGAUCCAGGGCACAGCACCUACCUCCUCCUUCUUUCCACACCUGCAAACUCUUUUACUUGGGCUGAAUAUUUAGUGUAAUUACAUCUCAGCUUUGAGGGCUCCUGUGGCAAAUUCCCGGAUUAAACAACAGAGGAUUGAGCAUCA,0.6 ratio

# Repeated from above (series 3):
Oligonucleotide,fitted relative affinity [z-score]
TGATTTTGGTCTTTCTGTTTGTGCTAG,4.14
TTAGGTTCCGGTTTCAGTTAGTGCTAG,4.68
TTAGGTTTCCTTCTCCTTTCGTGCTAG,3.12
TTAGATTTCGGGACTGGATTTGTGCTA,1.06
GACGGTATCCTTATCCTGGCGTGCTAG,0.692
